Results collected from several papers.
Protocols differ between the studies behind these lines. Values joined by “and” are separate records of one study, mostly repeats; a detail may differ. ± gives the spread as reported.

Compound	test	test system	setting	scale	measurement	result
Cl.Cn1c(=O)n(CCCCN2CCC3(CC2)OCc2ccccc23)c2ccccc21	food-maintained responding	Sprague-Dawley rat, male	intraperitoneal	–	effective dose	32 mg/kg
CC(C)C1CCC(N2CCC(N3C(=O)C(=O)c4ccccc43)CC2)CC1 (stereo not shown)	–	conscious Sprague-Dawley rat	intravenous bolus, 100 nmol/kg	–	urine flow rate	increased
[131I-].[Na+]	–	hyperthyroidism patients	185 MBq, long-term follow-up	–	patients requiring second ablation	~14%
C[C@]12CC[C@H](O)C[C@H]1CC[C@@H]1[C@@H]2CC[C@]2(C)[C@@H](c3ccc(=O)oc3)CC[C@]12O	–	female nude mouse LCC2 xenograft	1.0 mg/kg, day 7, tamoxifen-resistant	–	tumour volume	43.5 mm3 and 50.6 mm3 and 32.5 mm3 and 24.1 mm3 and 28.3 mm3 and 42.8 mm3 and 65 mm3
CS(=O)(=O)c1ccc(-c2nnc(/C=C/c3nnc(-c4ccc(C#N)cc4)o3)n2-c2ccccc2Cl)nc1	RNA-seq GSEA, item: FALLER_ENTEROCYTE_PRO_MOUSE	organoids, small intestinal, Apc Q1405X, mouse	dose not given, knockout organoids	reference: DMSO, direction not given	normalized enrichment score	-2.34
CC(=O)Nc1nnc(N2CCN([C@@H](C)c3ccc4c(c3)OCO4)CC2)s1	item: tau pS202/pT205 (AT8)	hTau P301L mice, brainstem and hippocampus	dose not given, 6 months, chronic treatment	–	phospho-tau level	no effect
Cc1nc(Nc2ccc(CC(=O)O)cc2)nc(Nc2ccc(F)c(C(F)(F)F)c2)c1C	–	mice, chronic ethanol plus binge	intraperitoneal, 0.3 mg/kg daily, ethanol diet 4 weeks, dosed last two	reference: vehicle	serum ALP	no effect
CCCCC1(CCCC)CN(c2ccccc2)c2cc(SC)c(OCC(=O)N[C@@H](C(=O)NCC(=O)O)c3ccccc3)cc2S(=O)(=O)C1	item: HDL cholesterol	human, serum	20 mg once daily, day 1	–	serum HDL-C	51.3 mg/dL
Cc1cn(-c2cc(NC(=O)c3ccc(C)c(Nc4nccc(-c5cccnc5)n4)c3)cc(C(F)(F)F)c2)cn1	item: NPI score	human	dose not given, 6 months versus baseline, unit not given	reference: placebo	mean difference in change	0
CN1CCN(S(=O)(=O)c2cc([N+](=O)[O-])ccc2N(CCOS(C)(=O)=O)CCOS(C)(=O)=O)CC1	–	NSG mice, sample BJ PDX	intraperitoneal, 25 mg/kg weekly x3	reference: treated over vehicle	EFS ratio (T/C)	> 73.8
C[C@]1(CO)Cc2ncn(-c3ccc(C#N)c(Cl)c3)c2C(=O)O1	–	Japanese subjects	80 mg single dose	–	urinary sodium excretion 0-24 h	132 mmol
C[C@H]1O[C@@H](O[C@H]2CC[C@@]3(C)[C@@H](CC[C@]4(C)[C@@H]3C=C[C@]35OC[C@@]6(CCC(C)(C)C[C@H]63)[C@@H](O)C[C@]54C)[C@]2(C)CO)[C@H](O)[C@@H](O[C@@H]2O[C@H](CO)[C@@H](O)[C@H](O)[C@H]2O)[C@H]1O	Western blot, item: PGC-1α	mouse, hepatic SIRT1 knockdown (AAV8-TBG), liver	dose not given, high dose, unit not given, added: ethanol	reference: β-actin	protein level	0.214 and 0.267 and 0.359
C[C@H](NC(=O)c1c(C(F)F)nn(C)c1Oc1cccc(C(F)(F)F)c1)c1ccc(C(=O)O)cc1	–	human, advanced tumours	125 mg	–	median overall survival	4.3 months
CC(=O)c1c(C)c2cnc(Nc3ccc(C4CCN(CCS(C)(=O)=O)CC4)cn3)nc2n(C2CCCC2)c1=O	RECIST v1.1	HR+/HER2- advanced breast cancer patients	100 mg twice daily, phase Ib monotherapy arm	–	best response stable disease	93.3%
CC[C@H](C)[C@@H]1NC(=O)[C@@H]2CCCN2C(=O)[C@H](CC(C)C)NC(=O)[C@H](CC(C)C)NC(=O)CNC(=O)[C@@H](NC(=O)[C@@H](NC(=O)[C@H](CC(=O)O)NC(=O)CNC(=O)[C@@H](NC(=O)[C@H](C)NC(=O)CNC(=O)[C@H](CCCCN)NC(=O)[C@H](CC(C)C)NC(=O)[C@H](CC(C)C)NC(=O)[C@H](CCCCN)NC(=O)CNC(=O)[C@@H](NC(=O)[C@@H](N)CC(C)C)C(C)C)C(C)C)C(C)C)CSSC[C@@H](C(=O)O)NC1=O	RNA-seq, item: Cd74	mouse, traumatic brain injury model, frontal cortex and hippocampus	dose not given	reference: TBI alone	log2 fold change	-2.38
O=C(O)Cc1c[nH]cn1	binding, equilibrium dialysis LC-MS	–	5 µM, thermostabilized A2AR-BRIL construct	reference: no-protein control, direction not given	z-scored log2 fold change	0.11
O=C(N=Nc1c(O)n(CCCCCF)c2ccccc12)c1ccccc1	–	C57BL/6 mice trained on THC	intraperitoneal, 3 mg/kg, THC 5.6 mg/kg discrimination	reference: vehicle	response rate	increased
NC(=O)c1ncn([C@@H]2O[C@H](CO)[C@@H](O)[C@H]2O)c1N	binding, equilibrium dialysis LC-MS	–	5 µM, thermostabilized A2AR-BRIL construct	reference: no-protein control, direction not given	z-scored log2 fold change	0.174
CCCCCOc1ccc(-c2ccc(-c3ccc(C(=O)N[C@H]4C[C@@H](O)[C@@H](O)NC(=O)[C@@H]5[C@@H](O)[C@@H](C)CN5C(=O)[C@H]([C@@H](C)O)NC(=O)[C@H]([C@H](O)[C@@H](O)c5ccc(O)cc5)NC(=O)[C@@H]5C[C@@H](O)CN5C(=O)[C@H]([C@@H](C)O)NC4=O)cc3)cc2)cc1	calcein leakage	DOPC/DOPG/CHOL liposomes	concentration not given, added: 20 wt% PEG-8000	–	maximum fusion	2 ± 2%

Excerpt of the above:
Compound	test	test system	setting	scale	measurement	result
CC(=O)c1c(C)c2cnc(Nc3ccc(C4CCN(CCS(C)(=O)=O)CC4)cn3)nc2n(C2CCCC2)c1=O	RECIST v1.1	HR+/HER2- advanced breast cancer patients	100 mg twice daily, phase Ib monotherapy arm	–	best response stable disease	93.3%
NC(=O)c1ncn([C@@H]2O[C@H](CO)[C@@H](O)[C@H]2O)c1N	binding, equilibrium dialysis LC-MS	–	5 µM, thermostabilized A2AR-BRIL construct	reference: no-protein control, direction not given	z-scored log2 fold change	0.174
